Measurements pooled from the literature.
Each line is one published result; not all experiments were run side by side. Several values in a cell are separate wells, animals, samples, runs or records. Numbers after ± are the reported error.
Rhomboid protease AarA: Rhomboid protease AarA (Providencia stuartii, UniProt P46116)
UniProt P46116, sequence (whole entry, looked up): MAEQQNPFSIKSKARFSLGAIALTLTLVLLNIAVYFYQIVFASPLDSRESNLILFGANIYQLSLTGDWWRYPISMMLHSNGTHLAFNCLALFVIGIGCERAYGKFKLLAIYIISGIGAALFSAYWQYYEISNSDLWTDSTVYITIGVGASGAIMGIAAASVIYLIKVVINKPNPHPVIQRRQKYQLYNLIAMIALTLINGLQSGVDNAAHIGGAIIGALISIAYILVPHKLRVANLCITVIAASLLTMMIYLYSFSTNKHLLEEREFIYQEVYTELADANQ
HDAC1: Histone deacetylase 1 (HDAC1, Homo sapiens, UniProt Q13547)
UniProt Q13547, sequence (whole entry, looked up): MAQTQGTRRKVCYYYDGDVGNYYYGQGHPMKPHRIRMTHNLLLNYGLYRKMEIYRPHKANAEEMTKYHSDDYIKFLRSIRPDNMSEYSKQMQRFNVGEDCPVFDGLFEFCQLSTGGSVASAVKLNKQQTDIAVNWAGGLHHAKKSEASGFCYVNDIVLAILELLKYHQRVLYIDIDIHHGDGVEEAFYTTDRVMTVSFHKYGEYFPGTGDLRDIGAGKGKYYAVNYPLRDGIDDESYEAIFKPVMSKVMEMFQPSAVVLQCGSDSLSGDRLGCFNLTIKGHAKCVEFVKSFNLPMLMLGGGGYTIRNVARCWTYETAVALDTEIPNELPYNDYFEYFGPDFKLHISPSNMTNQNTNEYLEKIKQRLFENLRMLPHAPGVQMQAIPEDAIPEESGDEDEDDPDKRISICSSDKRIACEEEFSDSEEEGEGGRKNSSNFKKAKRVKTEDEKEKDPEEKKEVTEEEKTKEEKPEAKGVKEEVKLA
Melanoma-associated antigen 4 MAGE homology domain: Melanoma-associated antigen 4, MAGE homology domain (Homo sapiens, UniProt P43358)
UniProt P43358, sequence (whole entry, looked up): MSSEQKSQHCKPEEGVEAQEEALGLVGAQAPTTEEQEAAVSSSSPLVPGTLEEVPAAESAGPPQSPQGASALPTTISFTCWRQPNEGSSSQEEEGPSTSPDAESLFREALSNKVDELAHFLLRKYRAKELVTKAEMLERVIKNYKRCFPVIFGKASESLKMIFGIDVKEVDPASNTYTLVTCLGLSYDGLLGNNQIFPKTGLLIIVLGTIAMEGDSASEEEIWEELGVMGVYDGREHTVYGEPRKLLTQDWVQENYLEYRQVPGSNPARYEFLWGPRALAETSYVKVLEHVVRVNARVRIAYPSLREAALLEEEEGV
PPARG ligand-binding domain: Peroxisome proliferator-activated receptor gamma, ligand-binding domain (PPARG, Homo sapiens, UniProt P37231)
UniProt P37231, sequence (whole entry, looked up): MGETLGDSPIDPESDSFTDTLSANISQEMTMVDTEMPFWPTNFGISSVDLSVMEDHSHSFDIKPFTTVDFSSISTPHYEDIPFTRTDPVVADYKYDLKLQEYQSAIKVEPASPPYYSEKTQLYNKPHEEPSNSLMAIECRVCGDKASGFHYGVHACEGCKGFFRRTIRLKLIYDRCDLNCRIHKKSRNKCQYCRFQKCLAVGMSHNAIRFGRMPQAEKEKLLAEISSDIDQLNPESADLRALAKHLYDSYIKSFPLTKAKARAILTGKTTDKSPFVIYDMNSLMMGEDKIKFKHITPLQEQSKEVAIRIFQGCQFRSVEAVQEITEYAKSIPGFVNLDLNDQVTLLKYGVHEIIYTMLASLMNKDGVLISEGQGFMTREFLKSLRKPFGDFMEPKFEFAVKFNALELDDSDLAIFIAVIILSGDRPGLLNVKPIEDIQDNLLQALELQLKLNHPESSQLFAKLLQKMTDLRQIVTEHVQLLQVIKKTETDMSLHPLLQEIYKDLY
PPARG: Peroxisome proliferator-activated receptor gamma (PPARG, Homo sapiens, UniProt P37231)
UniProt P51681, sequence (whole entry, unmodified, looked up): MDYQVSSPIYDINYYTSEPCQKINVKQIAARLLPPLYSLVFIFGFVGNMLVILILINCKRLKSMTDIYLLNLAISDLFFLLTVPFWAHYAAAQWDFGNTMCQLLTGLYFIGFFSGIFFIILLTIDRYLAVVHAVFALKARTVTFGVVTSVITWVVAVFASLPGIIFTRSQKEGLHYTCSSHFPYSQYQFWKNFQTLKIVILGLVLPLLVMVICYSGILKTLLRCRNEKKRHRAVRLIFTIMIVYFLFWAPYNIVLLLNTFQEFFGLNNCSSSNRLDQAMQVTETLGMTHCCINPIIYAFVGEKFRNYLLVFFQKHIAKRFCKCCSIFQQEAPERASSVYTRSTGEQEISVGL
UniProt Q92793, sequence (whole entry, looked up): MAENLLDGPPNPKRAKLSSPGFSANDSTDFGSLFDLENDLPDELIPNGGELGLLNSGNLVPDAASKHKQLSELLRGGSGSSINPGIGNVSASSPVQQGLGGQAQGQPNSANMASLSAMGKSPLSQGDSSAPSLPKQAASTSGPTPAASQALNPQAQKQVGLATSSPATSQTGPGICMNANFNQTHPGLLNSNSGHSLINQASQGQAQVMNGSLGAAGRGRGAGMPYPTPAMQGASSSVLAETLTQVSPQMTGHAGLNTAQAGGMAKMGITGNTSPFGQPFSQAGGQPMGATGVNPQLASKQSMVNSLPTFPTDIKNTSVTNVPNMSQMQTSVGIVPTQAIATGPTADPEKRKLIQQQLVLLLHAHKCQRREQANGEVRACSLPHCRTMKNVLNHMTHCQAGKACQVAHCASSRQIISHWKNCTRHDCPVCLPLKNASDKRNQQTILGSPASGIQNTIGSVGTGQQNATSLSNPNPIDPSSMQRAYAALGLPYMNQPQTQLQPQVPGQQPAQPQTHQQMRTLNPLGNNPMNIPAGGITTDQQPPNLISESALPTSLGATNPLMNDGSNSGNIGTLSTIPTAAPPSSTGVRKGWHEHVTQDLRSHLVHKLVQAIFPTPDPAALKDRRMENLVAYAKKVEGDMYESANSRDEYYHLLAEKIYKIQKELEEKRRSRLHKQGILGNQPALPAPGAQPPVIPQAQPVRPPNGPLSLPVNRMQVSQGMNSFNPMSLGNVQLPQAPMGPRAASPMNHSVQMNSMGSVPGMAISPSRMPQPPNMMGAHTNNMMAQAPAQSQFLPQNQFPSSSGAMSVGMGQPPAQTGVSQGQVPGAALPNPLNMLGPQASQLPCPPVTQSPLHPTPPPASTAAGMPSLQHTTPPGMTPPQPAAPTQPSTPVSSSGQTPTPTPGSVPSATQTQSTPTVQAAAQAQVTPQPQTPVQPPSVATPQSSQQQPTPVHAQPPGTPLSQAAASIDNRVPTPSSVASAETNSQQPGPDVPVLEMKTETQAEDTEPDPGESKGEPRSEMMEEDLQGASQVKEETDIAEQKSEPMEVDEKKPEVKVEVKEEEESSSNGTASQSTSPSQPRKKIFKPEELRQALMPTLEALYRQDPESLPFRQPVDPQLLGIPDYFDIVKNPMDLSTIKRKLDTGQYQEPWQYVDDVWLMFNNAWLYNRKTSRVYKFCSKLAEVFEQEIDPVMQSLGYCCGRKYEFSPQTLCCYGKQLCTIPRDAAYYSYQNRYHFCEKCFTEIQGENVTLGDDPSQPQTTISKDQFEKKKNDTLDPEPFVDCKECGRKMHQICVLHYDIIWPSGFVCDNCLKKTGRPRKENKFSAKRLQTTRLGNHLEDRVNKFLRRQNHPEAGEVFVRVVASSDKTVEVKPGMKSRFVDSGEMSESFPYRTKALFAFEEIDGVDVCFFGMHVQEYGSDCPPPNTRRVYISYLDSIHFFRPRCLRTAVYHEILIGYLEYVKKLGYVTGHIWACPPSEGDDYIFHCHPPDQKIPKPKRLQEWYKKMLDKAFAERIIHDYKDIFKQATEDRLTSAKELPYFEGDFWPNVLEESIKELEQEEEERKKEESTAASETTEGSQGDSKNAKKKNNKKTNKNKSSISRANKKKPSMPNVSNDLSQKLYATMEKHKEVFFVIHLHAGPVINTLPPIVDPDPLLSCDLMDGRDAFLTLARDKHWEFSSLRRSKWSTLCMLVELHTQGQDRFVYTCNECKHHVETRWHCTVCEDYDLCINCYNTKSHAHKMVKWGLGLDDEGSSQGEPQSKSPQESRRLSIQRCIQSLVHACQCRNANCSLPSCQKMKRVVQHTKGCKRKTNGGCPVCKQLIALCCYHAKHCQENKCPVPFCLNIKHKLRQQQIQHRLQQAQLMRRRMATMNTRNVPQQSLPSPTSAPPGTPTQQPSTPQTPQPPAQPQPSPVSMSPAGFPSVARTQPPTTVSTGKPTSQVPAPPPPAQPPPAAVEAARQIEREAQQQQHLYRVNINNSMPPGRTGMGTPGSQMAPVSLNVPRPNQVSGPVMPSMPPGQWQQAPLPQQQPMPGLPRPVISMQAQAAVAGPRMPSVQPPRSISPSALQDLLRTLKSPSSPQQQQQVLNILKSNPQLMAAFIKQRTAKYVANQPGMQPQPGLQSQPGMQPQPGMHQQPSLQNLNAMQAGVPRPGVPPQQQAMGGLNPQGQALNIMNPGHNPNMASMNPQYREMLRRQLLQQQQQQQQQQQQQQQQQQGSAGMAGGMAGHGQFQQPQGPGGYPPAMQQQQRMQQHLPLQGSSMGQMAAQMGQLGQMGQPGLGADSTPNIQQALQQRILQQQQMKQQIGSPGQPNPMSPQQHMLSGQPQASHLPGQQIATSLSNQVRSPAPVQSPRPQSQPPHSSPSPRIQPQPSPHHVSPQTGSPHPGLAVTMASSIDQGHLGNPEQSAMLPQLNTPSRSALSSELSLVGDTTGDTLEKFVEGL
UniProt P49840, sequence (whole entry, looked up): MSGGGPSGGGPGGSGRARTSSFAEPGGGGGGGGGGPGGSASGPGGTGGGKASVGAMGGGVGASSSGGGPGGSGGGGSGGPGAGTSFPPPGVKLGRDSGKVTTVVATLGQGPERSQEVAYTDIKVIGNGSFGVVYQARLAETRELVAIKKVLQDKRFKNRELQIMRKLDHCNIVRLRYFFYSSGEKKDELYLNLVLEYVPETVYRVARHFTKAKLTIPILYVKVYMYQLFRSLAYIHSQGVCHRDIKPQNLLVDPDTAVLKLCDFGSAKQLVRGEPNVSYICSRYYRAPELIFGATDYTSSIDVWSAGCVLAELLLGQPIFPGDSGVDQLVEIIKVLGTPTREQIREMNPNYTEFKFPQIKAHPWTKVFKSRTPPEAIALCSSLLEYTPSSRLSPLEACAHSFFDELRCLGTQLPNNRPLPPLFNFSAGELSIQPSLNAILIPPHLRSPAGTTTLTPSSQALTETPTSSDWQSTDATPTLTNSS

O=C(Nc1ccccc1OCC1CC1)C(C(F)(F)F)C(F)(F)F  IC50 (Rhomboid protease AarA; enzyme activity, inhibitor, fluorescence): 1 µM
Cc1nc2c(F)cc(-c3nc(Nc4ccc(C(=O)NCCCCCCC(=O)NO)cc4)ncc3F)cc2n1C(C)C  IC50 (HDAC1; enzyme activity, inhibitor): 0.011 µM
CC(C)C[C@H](NC(=O)CNC(=O)[C@H](C)NC(=O)[C@H](C)NC(=O)[C@H](CCCNC(=N)N)NC(=O)CNC(=O)CCCCNC(=O)CCCCNC(=O)CCCCNC(=O)[C@H](CCCCN)NC(=O)[C@H](C)NC(=O)[C@@H](N)Cc1c[nH]c2ccccc12)C(=O)N[C@@H](CC(C)C)C(=O)N[C@@H](CO)C(N)=O  IC50 (NPBWR1 (Homo sapiens, UniProt P48145); calcium signal, antagonist): 0.84 µM
CC[C@H](C)[C@@H]1NC(=O)[C@H](Cc2ccc(O)cc2)NC(=O)CCSCc2cccc(c2)CSCCNC(=O)[C@H](C)NC(=O)[C@H](Cc2ccc(O)cc2)NC(=O)[C@H](CC(=O)O)NC(=O)[C@H](Cc2ccc(O)cc2)NC(=O)[C@H](CC(C)C)NC(=O)[C@H](CCCNC(=N)N)NC1=O  IC50 (Melanoma-associated antigen 4 MAGE homology domain; binding, inhibitor, TR-FRET displacement; with: Alexa647-MTP-1): 0.0547 ± 0.015 µM
O=C1CC(c2ccccc2)N1S(=O)(=O)c1cccc(-c2ccccc2)c1 (stereo not shown)  IC50 (Rhomboid protease AarA; enzyme activity, inhibitor, fluorogenic peptide; 23 min pre-incubation): 33 µM
O=C(Nc1c[nH]nc1C(=O)NC1CCNCC1)c1cc(F)cc(F)c1  IC50 (GSK3A (Homo sapiens, UniProt P49840); target engagement in cells, BRET): 0.01 µM
Cc1nc2cc(C(=O)N[C@@H](C)c3cccc(C(C)(C)C)c3)ccc2n1Cc1cccc(OC(C)(C)C(=O)O)c1  IC50 (PPARG ligand-binding domain; reporter gene, luciferase reporter; HEK293T, Gal4-PPARγ LBD): 31.4 µM
O=C(Nc1ccccc1C(=O)N1CCOCC1)C(C(F)(F)F)C(F)(F)F  IC50 (Rhomboid protease AarA; enzyme activity, inhibitor, fluorescence): 25 µM
Cc1nc2ccccc2c(=O)n1N  IC50 (Serine protease 1 (PRSS1, Bos taurus, UniProt P00760); enzyme activity, inhibitor): 99.9 µM
Cc1ccc(CNC(=O)[C@@H](NC(=O)[C@H](CCc2ccccc2)NC(=O)[C@@H](NC(=O)c2cnc(C)cn2)C(C)(C)C)C(C)C)cc1  IC50 (Psmb1/Psmb8 (Rattus norvegicus, UniProt P18421+P28064); enzyme activity, inhibitor; with: Ac-ANW-aminocoumarin, PA28α 12 nM): 0.51 µM
CCCC(=O)OC1CCC2(C)C(CCC3(C)C2CC=C2C4C(C)C(C)CCC4(C(=O)O)CCC23C)C1(C)C (stereo not shown)  IC50 (UGT1A1 (Homo sapiens, UniProt P22309); enzyme activity, inhibitor): > 100 µM
Cc1nn(-c2cccc(N)c2)c(=O)c2cnc(Nc3ccc(N4CCNCC4)cc3)nc12  IC50 (MAPK1 (Homo sapiens, UniProt P28482); enzyme activity, inhibitor): > 10 µM
O=C(CCNC(=O)CNC(=O)CC(c1ccccc1)(c1ccccc1)c1ccccc1)NCC1CCN(C(=O)c2ccc(F)cc2)CC1  IC50 (CHRM2 (Homo sapiens, UniProt P08172); ligand displacement, radioligand; cell membranes): > 30 µM
CC(CC1CC2CCC1C2)Nc1nn2c(=O)ccnc2s1 (stereo not shown)  IC50 (PPM1D (Homo sapiens, UniProt O15297); enzyme activity, inhibitor): 11.5 µM
O=C(NC1CCCCC1)C(C(F)(F)F)C(F)(F)F  IC50 (Rhomboid protease AarA; enzyme activity, inhibitor, fluorescence): 25 µM
O=C(CCNC(=O)CNC(=O)CC(c1ccccc1)(c1ccccc1)c1ccccc1)NC[C@@H]1CCCN(C(=O)c2ccc(F)cc2)C1  IC50 (CHRM4 (Homo sapiens, UniProt P08173); ligand displacement, radioligand; cell membranes): > 30 µM
CC(=O)c1cnc(N)nc1N1CC[C@H]1c1nn2ccc(Cl)c2c(=O)n1-c1ccccc1  IC50 (Phosphatidylinositol 4,5-bisphosphate 3-kinase catalytic subunit beta isoform (Rattus norvegicus, UniProt Q9Z1L0); binding, KiNativ; intact rat white blood cells): > 1 µM
Cc1cc2c(cc1N)n(C)c(=O)n2C  IC50 (Peregrin, bromodomain (BRPF1, Homo sapiens, UniProt P55201)): 0.157 µM
Cc1c(Cc2ccc(Cl)c(OC(C)C(=O)O)c2)c2ccc(C(=O)NC(C)c3ccc(C(C)(C)C)cc3)cc2n1CC1CCC1 (stereo not shown)  IC50 (PPARG; ligand displacement, TR-FRET): 0.00066 µM
COC(=O)CCCCCCC(=O)Nc1ccc(Nc2ncc(F)c(-c3cc(F)c4nc(C)n(C(C)C)c4c3)n2)nc1  IC50 (HDAC1; enzyme activity, inhibitor): > 1 µM
COc1cc(-c2cc(C(C)=O)n3ccccc23)cc(OC)c1Cn1ccnc1  IC50 (CREBBP (Homo sapiens, UniProt Q92793); inhibitor): 0.52 µM
O=C(COc1cccc2ccccc12)NCc1ccc(OP(=O)(O)O)c(OP(=O)(O)O)c1  IC50 (Signal transducer and activator of transcription 5B, SH2 (STAT5B, Homo sapiens, UniProt P51692); ligand displacement, FP): 0.55 µM
CC[C@H](C)[C@@H]1NC(=O)[C@H](Cc2ccc(O)cc2)NC(=O)CCSCc2cccc(c2)CSCCNC(=O)[C@H](Cc2c[nH]cn2)NC(=O)[C@H](Cc2ccc(O)cc2)NC(=O)[C@H](CC(=O)O)NC(=O)[C@H](Cc2ccc(O)cc2)NC(=O)[C@H](CC(C)C)NC(=O)[C@H](CCCNC(=N)N)NC1=O  IC50 (Melanoma-associated antigen 4, MHD; with RAD18 (Homo sapiens, UniProt P43358); protein-protein interaction, NanoBRET; HEK293; 1.5 h): 34.4 µM
Cc1c(Cc2ccc(Cl)c(OCC(=O)O)c2)c2ccc(C(=O)NCc3ccc(C(C)(C)C)cc3)cc2n1C  IC50 (PPARG; ligand displacement, TR-FRET): 0.00554 µM
Cc1nnc(C(C)C)n1C1CC2CCC(C1)N2CCC(NC(=O)COCCOCCNC(=O)Cc1ccc(-c2nncnn2)cc1)c1ccccc1 (stereo not shown)  IC50 (CCR5 (Homo sapiens, UniProt P51681, Y184K); calcium mobilisation, inhibitor; HEK293T expressing CCR5; with: PSC-RANTES): 0.08 µM and 0.114 µM and 0.0904 µM
Cc1c(Cc2cccc(OC(C)C(=O)O)c2)c2ccc(C(=O)NC(C)c3ccc(C4CC4)cc3)cc2n1C (mixture of isomers)  IC50 (PPARG; ligand displacement, TR-FRET): 0.0004 µM
CN(Cc1ccccc1)C(=O)c1ccccc1NC(=O)C(C(F)(F)F)C(F)(F)F  IC50 (Rhomboid protease AarA; enzyme activity, inhibitor, fluorescence): 5.4 µM
Nc1ncc2c(n1)-c1c([nH]c3ccc(C4=CCOCC4)cc13)CCC2  IC50 (STK16 (Homo sapiens, UniProt O75716); enzyme activity, inhibitor, radiometric): 1.2 µM
CC[C@H](C)[C@@H]1NC(=O)[C@H](Cc2ccc(O)cc2)NC(=O)CSC[C@@H](C(N)=O)NC(=O)[C@H](CC(N)=O)NC(=O)[C@H](Cc2c[nH]cn2)NC(=O)[C@H](Cc2ccc(O)cc2)NC(=O)[C@H](CC(=O)O)NC(=O)[C@H](Cc2ccc(Br)cc2)NC(=O)[C@H](CC(C)C)NC(=O)[C@H](CCCNC(=N)N)NC1=O  IC50 (Melanoma-associated antigen 4 MAGE homology domain; binding, inhibitor, TR-FRET displacement; with: Alexa647-MTP-1): 0.0463 ± 0.016 µM
NCCOc1ccccc1NC(=O)C(C(F)(F)F)C(F)(F)F  IC50 (Rhomboid protease AarA; enzyme activity, inhibitor, fluorescence): 68 µM
CCCSc1nc(Sc2nc3ccccc3o2)c2nnn(CCO)c2n1  IC50 (KDM1A (Homo sapiens, UniProt O60341); enzyme activity, inhibitor, fluorescence): 2.54 µM
Cc1cc(C)nc(NC(=S)N2CCN(Cc3ccc(C(F)(F)F)cc3)CC2)c1  IC50 (LDHA (Homo sapiens, UniProt P00338); enzyme activity, inhibitor): > 57 µM
Fc1ccc(Nc2nc(NC3CCCCC3)c3cc(Br)ccc3n2)cc1F  IC50 (ADRB2 (Homo sapiens, UniProt P07550, N148A); β-arrestin2 recruitment, antagonist, BRET; HEK293; mutant N148A, with: isoprenaline 1 µM): 0.158 µM
Cc1c(Cc2cc(Cl)cc(O[C@H](C)C(=O)O)c2)c2ccc(C(=O)N[C@@H](C)c3ccc(C(C)(C)C)cc3)cc2n1CC1CCC1  IC50 (PPARG; ligand displacement, TR-FRET): 0.0201 µM
[N-]=[N+]=N[C@]1(COP(=O)(O)OP(=O)(O)OP(=O)(O)O)O[C@@H](n2ccc(N)nc2=O)[C@@H](F)[C@@H]1O  IC50 (Gag-Pol polyprotein, reverse transcriptase (gag-pol, Human immunodeficiency virus type 1 group M subtype B, UniProt P04585); reverse transcriptase activity, inhibitor; RNA template, with: dCTP 1 µM): 5.3 µM
CCN(CC)CC(=O)Nc1cccc(-n2cc(-c3ccc4ccc(-c5cn(-c6cccc(NC(=O)CN(CC)CC)c6)nn5)cc4c3)nn2)c1  IC50 (ERBB4 (Homo sapiens, UniProt Q15303); enzyme activity, inhibitor): > 10 µM
Cc1nc2c(F)cc(-c3nc(Nc4ccc(C(=O)NCCCCCC(=O)NO)cc4)ncc3F)cc2n1C(C)C  IC50 (HDAC1; enzyme activity, inhibitor): 0.0026 µM
O=C(Cc1ccc(OCc2ccccc2)cc1)NC1(C(=O)O)CCN(C(=O)c2ccc(-c3cccc(Cl)c3)cc2)CC1  IC50 (LPAR5 (Homo sapiens, UniProt Q9H1C0); antagonist, GloSensor cAMP): > 10 µM
O=C1CC(c2ccc(Br)cc2)N1S(=O)(=O)c1cccc(Cl)c1 (stereo not shown)  IC50 (Rhomboid protease AarA; enzyme activity, inhibitor): 107 µM
Cc1nc2c(F)cc(-c3nc(Nc4ccc(NC(=O)CCCCCCC(=O)O)cc4)ncc3F)cc2n1C(C)C  IC50 (HDAC1; enzyme activity, inhibitor): 0.015 µM
Cc1c(Cc2ccc(OC(C)C(=O)O)cc2Cl)c2ccc(C(=O)NC(C)c3ccc(C(C)(C)C)cc3)cc2n1C (stereo not shown)  IC50 (PPARG; ligand displacement, TR-FRET): 1.18 µM
O=C(Nc1ccc(OC(F)(F)F)cc1)N1CCC(Cc2cccc(Oc3ccc(C(F)(F)F)cn3)c2)CC1  IC50 (Cocaine esterase (CES2, Homo sapiens, UniProt O00748); enzyme activity, inhibitor): 0.6 µM
Cc1c(Cc2ccc(OC(C)C(=O)O)cc2)c2ccc(C(=O)N[C@@H](C)c3ccc(C(C)(C)C)cc3)cc2n1C (stereo partly shown)  IC50 (PPARG ligand-binding domain; reporter gene, luciferase reporter; HEK293T, Gal4-PPARγ LBD): 3.46 µM
CCOc1cc(CN2CCC3(CC2)CN(c2ccc(C(=O)O)cc2)C(=O)N3)c(C2CC2)cc1C  IC50 (SSTR5 (Homo sapiens, UniProt P35346, M116A); cAMP level, antagonist, GloSensor; AD293; M116A mutant, bandwidth 3.29, with: CST17 EC80 and forskolin): 0.0676 µM
Cc1nc2cc(C(=O)N[C@@H](C)c3ccc(C(C)(C)C)cc3)ccc2n1Cc1cc(Cl)cc(O[C@H](C)C(=O)O)c1  IC50 (PPARG; ligand displacement, TR-FRET): 0.0371 µM
O=C(NCc1ccccc1Cl)C(C(F)(F)F)C(F)(F)F  IC50 (Rhomboid protease AarA; enzyme activity, inhibitor, fluorescence): 9 µM

A few entries again:
O=C(NC1CCCCC1)C(C(F)(F)F)C(F)(F)F  IC50 (Rhomboid protease AarA; enzyme activity, inhibitor, fluorescence): 25 µM
Nc1ncc2c(n1)-c1c([nH]c3ccc(C4=CCOCC4)cc13)CCC2  IC50 (STK16 (Homo sapiens, UniProt O75716); enzyme activity, inhibitor, radiometric): 1.2 µM
Cc1nnc(C(C)C)n1C1CC2CCC(C1)N2CCC(NC(=O)COCCOCCNC(=O)Cc1ccc(-c2nncnn2)cc1)c1ccccc1 (stereo not shown)  IC50 (CCR5 (Homo sapiens, UniProt P51681, Y184K); calcium mobilisation, inhibitor; HEK293T expressing CCR5; with: PSC-RANTES): 0.08 µM and 0.114 µM and 0.0904 µM
CN(Cc1ccccc1)C(=O)c1ccccc1NC(=O)C(C(F)(F)F)C(F)(F)F  IC50 (Rhomboid protease AarA; enzyme activity, inhibitor, fluorescence): 5.4 µM
Cc1c(Cc2ccc(OC(C)C(=O)O)cc2Cl)c2ccc(C(=O)NC(C)c3ccc(C(C)(C)C)cc3)cc2n1C (stereo not shown)  IC50 (PPARG; ligand displacement, TR-FRET): 1.18 µM
O=C(Nc1ccc(OC(F)(F)F)cc1)N1CCC(Cc2cccc(Oc3ccc(C(F)(F)F)cn3)c2)CC1  IC50 (Cocaine esterase (CES2, Homo sapiens, UniProt O00748); enzyme activity, inhibitor): 0.6 µM
